Results gathered from unrelated publications.
Each numbered part is a random draw from the data of one study; scales do not carry over between parts. Positions count from the first letter of the parent shown.
Sequence of UniProt Q15759 (whole entry, looked up): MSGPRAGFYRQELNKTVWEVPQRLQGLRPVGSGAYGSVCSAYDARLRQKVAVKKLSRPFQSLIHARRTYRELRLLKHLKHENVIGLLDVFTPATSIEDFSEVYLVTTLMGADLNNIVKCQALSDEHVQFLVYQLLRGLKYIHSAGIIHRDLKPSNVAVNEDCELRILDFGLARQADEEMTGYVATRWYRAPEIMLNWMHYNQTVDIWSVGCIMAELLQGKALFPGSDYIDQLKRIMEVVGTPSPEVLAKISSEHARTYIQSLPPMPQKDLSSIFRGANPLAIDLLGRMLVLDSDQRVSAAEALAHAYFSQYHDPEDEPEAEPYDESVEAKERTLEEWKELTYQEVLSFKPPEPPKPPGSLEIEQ
Sequence of UniProt Q92772 (whole entry, looked up): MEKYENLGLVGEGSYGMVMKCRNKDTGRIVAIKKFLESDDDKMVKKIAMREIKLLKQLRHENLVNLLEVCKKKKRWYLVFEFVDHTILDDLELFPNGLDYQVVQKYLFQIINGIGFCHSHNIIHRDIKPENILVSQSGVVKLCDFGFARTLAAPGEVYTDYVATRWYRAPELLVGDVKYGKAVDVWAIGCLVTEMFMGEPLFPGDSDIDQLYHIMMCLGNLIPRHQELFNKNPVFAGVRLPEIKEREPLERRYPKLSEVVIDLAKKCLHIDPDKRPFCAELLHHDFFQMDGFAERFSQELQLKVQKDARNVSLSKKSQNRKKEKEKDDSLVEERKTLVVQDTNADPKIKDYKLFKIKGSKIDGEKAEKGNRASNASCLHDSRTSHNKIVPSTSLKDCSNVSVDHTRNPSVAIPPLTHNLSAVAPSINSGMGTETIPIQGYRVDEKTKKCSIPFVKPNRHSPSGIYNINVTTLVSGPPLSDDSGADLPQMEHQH
Sequence of UniProt Q07002 (whole entry, looked up): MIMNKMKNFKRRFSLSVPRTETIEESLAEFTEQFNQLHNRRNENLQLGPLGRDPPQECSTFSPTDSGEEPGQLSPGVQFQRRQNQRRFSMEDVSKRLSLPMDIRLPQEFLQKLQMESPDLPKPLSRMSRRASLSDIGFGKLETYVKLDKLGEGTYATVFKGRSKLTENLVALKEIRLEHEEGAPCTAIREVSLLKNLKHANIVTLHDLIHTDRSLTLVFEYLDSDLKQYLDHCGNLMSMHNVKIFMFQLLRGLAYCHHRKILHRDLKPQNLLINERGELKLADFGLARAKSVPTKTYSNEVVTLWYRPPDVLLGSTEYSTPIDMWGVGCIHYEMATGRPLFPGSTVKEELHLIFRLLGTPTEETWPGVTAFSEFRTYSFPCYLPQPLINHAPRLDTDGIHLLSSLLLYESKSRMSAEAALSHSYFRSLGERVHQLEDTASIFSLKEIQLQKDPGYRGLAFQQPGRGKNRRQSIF
Sequence of UniProt P29597 (whole entry, looked up): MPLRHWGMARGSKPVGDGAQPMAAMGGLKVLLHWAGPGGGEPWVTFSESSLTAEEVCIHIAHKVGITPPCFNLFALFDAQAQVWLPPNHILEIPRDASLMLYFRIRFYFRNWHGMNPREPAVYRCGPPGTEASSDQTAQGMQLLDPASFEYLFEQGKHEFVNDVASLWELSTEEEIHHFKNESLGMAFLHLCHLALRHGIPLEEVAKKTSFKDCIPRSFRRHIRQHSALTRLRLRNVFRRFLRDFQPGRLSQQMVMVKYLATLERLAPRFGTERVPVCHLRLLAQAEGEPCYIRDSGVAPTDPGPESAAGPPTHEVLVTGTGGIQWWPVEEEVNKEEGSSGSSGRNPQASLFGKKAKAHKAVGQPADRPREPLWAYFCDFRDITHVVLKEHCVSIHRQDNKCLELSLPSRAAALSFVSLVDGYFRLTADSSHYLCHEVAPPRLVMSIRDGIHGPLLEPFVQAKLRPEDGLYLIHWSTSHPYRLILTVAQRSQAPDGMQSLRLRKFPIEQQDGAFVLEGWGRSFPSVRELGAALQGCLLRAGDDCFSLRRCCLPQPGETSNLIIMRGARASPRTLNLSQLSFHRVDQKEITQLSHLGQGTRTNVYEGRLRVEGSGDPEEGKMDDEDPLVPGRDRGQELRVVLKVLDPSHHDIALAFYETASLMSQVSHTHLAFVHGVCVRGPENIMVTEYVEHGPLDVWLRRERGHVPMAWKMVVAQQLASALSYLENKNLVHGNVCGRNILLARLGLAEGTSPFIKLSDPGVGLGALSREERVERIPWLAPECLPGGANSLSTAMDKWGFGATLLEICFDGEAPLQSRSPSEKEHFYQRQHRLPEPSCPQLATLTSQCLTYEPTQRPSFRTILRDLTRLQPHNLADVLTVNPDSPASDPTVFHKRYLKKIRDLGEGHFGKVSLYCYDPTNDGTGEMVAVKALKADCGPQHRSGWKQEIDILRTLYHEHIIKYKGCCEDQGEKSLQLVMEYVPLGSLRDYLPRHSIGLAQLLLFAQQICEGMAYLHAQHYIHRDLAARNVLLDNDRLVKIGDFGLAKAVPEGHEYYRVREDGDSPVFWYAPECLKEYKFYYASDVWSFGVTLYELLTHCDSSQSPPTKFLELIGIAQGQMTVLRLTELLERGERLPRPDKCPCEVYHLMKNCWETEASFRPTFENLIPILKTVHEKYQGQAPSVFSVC
Sequence of UniProt O75676 (whole entry, looked up): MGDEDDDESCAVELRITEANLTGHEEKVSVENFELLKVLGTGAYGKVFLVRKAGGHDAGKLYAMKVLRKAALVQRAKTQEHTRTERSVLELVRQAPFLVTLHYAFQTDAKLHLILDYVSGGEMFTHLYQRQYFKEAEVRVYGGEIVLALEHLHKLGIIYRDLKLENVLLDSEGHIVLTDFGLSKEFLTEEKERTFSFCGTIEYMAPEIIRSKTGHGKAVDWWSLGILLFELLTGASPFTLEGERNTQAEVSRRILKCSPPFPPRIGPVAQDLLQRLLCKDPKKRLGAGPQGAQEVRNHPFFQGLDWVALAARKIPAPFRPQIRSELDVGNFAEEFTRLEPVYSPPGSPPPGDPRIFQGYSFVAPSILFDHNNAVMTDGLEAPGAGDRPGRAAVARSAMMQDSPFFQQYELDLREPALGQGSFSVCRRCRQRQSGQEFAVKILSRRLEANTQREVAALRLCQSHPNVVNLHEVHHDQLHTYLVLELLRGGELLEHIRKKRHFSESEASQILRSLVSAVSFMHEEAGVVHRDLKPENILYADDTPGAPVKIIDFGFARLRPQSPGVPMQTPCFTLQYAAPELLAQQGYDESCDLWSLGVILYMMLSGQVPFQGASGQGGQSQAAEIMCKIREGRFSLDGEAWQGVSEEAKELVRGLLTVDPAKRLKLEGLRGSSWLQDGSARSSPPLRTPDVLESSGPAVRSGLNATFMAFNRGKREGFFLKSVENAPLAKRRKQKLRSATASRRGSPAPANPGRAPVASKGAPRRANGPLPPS
Sequence of UniProt Q16832 (whole entry, looked up): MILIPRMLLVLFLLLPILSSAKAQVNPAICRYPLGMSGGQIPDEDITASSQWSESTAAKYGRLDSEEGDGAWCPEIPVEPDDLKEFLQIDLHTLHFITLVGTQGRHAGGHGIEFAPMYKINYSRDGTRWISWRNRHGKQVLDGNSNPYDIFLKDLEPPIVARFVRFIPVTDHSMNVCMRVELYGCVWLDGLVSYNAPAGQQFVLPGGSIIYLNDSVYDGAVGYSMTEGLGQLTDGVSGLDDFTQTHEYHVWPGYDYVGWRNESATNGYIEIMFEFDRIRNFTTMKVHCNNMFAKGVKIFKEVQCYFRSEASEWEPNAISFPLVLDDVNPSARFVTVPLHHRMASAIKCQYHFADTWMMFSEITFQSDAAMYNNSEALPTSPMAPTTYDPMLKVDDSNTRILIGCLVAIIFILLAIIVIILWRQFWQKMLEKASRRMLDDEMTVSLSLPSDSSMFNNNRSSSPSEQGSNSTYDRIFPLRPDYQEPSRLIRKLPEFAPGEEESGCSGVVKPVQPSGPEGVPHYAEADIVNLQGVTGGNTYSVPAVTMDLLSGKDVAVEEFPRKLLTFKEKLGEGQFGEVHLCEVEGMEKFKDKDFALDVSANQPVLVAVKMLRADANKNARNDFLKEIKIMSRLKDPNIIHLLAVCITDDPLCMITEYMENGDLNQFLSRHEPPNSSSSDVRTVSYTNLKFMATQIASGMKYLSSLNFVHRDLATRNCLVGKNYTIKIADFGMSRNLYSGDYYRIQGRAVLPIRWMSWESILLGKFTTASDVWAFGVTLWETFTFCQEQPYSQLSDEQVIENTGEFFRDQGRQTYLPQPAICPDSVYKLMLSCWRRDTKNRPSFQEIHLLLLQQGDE
Sequence of UniProt O75582 (whole entry, looked up): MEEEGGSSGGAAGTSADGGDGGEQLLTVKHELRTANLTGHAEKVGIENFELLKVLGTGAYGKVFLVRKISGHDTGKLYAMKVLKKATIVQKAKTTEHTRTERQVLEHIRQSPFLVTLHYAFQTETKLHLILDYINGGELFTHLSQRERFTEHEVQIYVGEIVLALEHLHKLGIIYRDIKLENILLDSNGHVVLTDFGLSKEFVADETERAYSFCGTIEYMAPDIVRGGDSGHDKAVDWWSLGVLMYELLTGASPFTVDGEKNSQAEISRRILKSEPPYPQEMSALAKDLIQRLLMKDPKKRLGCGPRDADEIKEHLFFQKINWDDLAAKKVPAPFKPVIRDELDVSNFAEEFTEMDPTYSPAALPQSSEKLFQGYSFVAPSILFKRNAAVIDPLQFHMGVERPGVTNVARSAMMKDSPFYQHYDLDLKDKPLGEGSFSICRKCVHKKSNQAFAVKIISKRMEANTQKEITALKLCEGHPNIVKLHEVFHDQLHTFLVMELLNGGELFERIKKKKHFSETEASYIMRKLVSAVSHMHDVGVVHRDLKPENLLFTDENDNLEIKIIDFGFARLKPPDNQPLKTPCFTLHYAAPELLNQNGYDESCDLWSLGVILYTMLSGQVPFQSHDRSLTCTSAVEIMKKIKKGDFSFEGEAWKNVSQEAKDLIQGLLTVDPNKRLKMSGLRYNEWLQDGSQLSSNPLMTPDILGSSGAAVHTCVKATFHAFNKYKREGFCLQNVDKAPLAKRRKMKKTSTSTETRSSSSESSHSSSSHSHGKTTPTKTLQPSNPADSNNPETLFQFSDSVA

Study 1 — effect on: cell-free assay; method: competition with immobilised ligand; concentration: 1 µM; measurement: remaining binding
Structure (SMILES): CCCCN(CCCC)C(=O)CN1C[C@@H](c2cc(OC)c3c(c2)OCO3)[C@H](C(=O)O)[C@H]1CC(C)(C)CCC
target = FGFR1 (Homo sapiens, UniProt P11362); value = 100%
target = MAP2K5 (Homo sapiens, UniProt Q13163); value = 100%
target = Ribosomal protein S6 kinase alpha-5, N-terminal kinase domain (RPS6KA5, Homo sapiens, UniProt O75582); value = 74.4%
target = SNRK (Homo sapiens, UniProt Q9NRH2); value = 98.4%
target = PIK3CA (Homo sapiens, UniProt P42336, Q546K); value = 100%
target = CDKL2 (Homo sapiens, UniProt Q92772); value = 39.2%
target = DDR2 (Homo sapiens, UniProt Q16832); value = 99.1%
target = CDK18 (Homo sapiens, UniProt Q07002); value = 92.4%
target = Non-receptor tyrosine-protein kinase TYK2, JH1 (TYK2, Homo sapiens, UniProt P29597); value = 100%
target = AKT3 (Homo sapiens, UniProt Q9Y243); value = 100%
target = TAOK3 (Homo sapiens, UniProt Q9H2K8); value = 67.9%
target = MYLK3 (Homo sapiens, UniProt Q32MK0); value = 100%
target = PKN2 (Homo sapiens, UniProt Q16513); value = 100%

Study 2 — target: NFE2, bZIP domain (human); method: DHFR protein complementation; medium: yeast; baseline: wild-type JUN-FOS pair; reading: higher = stronger binding; measurement: binding fitness
Setting: single substitutions, most at no-binding floor
Parent: JUN, bZIP domain (human); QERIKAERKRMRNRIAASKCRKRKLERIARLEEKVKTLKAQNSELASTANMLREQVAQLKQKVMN; partner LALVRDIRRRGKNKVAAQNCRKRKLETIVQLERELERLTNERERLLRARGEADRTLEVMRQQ
Variant = R53D; value = -1.44 natural log
Variant = R30F; value = -1.3 natural log
Variant = A40E; value = -1.49 natural log
Variant = L52R; value = -1.5 natural log
Variant = L52C; value = -1.51 natural log
Variant = K36D; value = -1.42 natural log
Variant = K34D; value = -1.28 natural log
Variant = R53H; value = -1.43 natural log

Study 3 — SMILES: COc1cc2ncnc(Nc3ccc(O)c(Br)c3)c2cc1OC; effect on: enzyme activity; mode: inhibitor; concentration: 0.5 µM; baseline: control; measurement: remaining activity
target = KDR (Homo sapiens, UniProt P35968); value = 69.6%
target = RPS6KA4 (Homo sapiens, UniProt O75676); value = 93.8%
target = MAP2K1 (Homo sapiens, UniProt Q02750); value = 98.2%
target = MAPK11 (Homo sapiens, UniProt Q15759); value = 90.1%
target = CDC42BPB (Homo sapiens, UniProt Q9Y5S2); value = 98%
target = MINK1 (Homo sapiens, UniProt Q8N4C8); value = 64.4%

Study 4 — method: RNA Bind-n-Seq; form: RNA; medium: in vitro; concentration: 365 nM; baseline: no-protein control; reading: higher = stronger binding; measurement: RBNS enrichment (R)
Target: RNA binding protein fox-1 homolog 2, RRM domain, GST-SBP tag (RBFOX2, Homo sapiens, UniProt O43251-10, residues 100-194)
Setting: natural RNA segment, single round, ends assumed
Shared flanks, not repeated: GGGAGUUCUACAGUCCGACGAUC … UGGAAUUCUCGGGUGCCAA
Target sequence (chain): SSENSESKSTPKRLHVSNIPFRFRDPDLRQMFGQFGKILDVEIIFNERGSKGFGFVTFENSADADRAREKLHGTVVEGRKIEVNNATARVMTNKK
Sequence = CUAGAACAAGGUCGCUUCUCUUUUCCUCUUCUCUCCCAACCUGUUAACCUAGUGCUAGAUAGUCAGCUGCUGUUGCAGGUAGAAAAGCUCACCAAUGCCACAUUUGUUCA; value = 0.482
Sequence = UAUCAAUCAGAAUUGGAGUUUUUAACAGUGGUCAUUAUCAAAGCUGUGUUAUUUUCCACAGAAUAUAGAAUAUAUAUUUUUUUCGUGUGUGUUUUUGUUAACUACCCUAC; value = 0.522
Sequence = AGAACAGUGUGGAGCUUGAGAAAGAGAACUUUAAAAAUUAGAGGGUCCCUUUCUGCAGAGGAAGGGAUGCUCGCAGGGUGGCAGUGGCCCAGCCCCAGCCUCAGGGACGG; value = 0.506
Sequence = GACUGCUUUCACUCGGCCUGAUGGACAAGCCCGCGUGUGUUCACGUCUGUGUGUAACUCACCCAGAGCAGAUCUGUGAGUCUCGAUGUGCUUUGUAAUCUCUGCUUGAGU; value = 0.696
Sequence = CUACAUGCUUUUUGUAUCACACAGUAUAUGAUGGGGCAUGUGCCAUAGUGCAGGCUUGGGGAGCUUUAAGCCUCAGUUAUAUAACCCACGAAAAACAGAGCCUCCUAGAU; value = 0.354
Sequence = UUUCAAGCCAUGUAAUCCAUUAAUUUUGUGGGAAGCUUAAUAAAUCAGAAGCUUUUAUUUCUUCUUAUUUUAAUUGUAUCUUAGUUGACUGAAUUUUGGUGAAGUUUUUU; value = 0.838
Sequence = AUUUACAAUGCAGAAUUUUUUGAGUAAUUCUAGCUUUCAAAAAUUAGUGAAGUUCUUUUACUGUAAUUGGUGACAAUGUCACAUAAUGAAUGCUAUUGAAAAGGUUAACA; value = 0.5
Sequence = AUAUUACUGGCGUUUUGUUCAUUUUAAGACUGUUAACAUGAAGAAAAGUGUGCUAGAACUUUUUAAAAACACAUAAUGUCUUGAAGUUAGAAUAAACACUAAGAAAUGAC; value = 1.02

Some of these lines once more (study 1):
target = MAP2K5 (Homo sapiens, UniProt Q13163); value = 100%
target = Ribosomal protein S6 kinase alpha-5, N-terminal kinase domain (RPS6KA5, Homo sapiens, UniProt O75582); value = 74.4%
target = SNRK (Homo sapiens, UniProt Q9NRH2); value = 98.4%
